{"data": "Results collected from several papers", "note": "Numbered parts are unrelated; each lists some results of a single study. Substitutions count along the parent as printed."}
{"data": "Set 1", "target": "ABI1, truncated, D143A, DHFR fusion (Arabidopsis thaliana)", "method": "DHFR PCA, deep sequencing", "matrix": "yeast", "notes": "methotrexate growth selection, single substitutions", "added": "(+)-ABA 0 µM", "relative to": "wild-type fitted maximum", "direction": "higher = stronger binding", "starting sequence": "PYL1, truncated, DHFR fusion (Arabidopsis thaliana); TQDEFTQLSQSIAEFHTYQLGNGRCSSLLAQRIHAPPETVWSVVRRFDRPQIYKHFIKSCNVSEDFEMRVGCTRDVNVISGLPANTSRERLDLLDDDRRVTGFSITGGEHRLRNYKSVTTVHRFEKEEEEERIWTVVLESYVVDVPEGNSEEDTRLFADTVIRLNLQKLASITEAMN; partner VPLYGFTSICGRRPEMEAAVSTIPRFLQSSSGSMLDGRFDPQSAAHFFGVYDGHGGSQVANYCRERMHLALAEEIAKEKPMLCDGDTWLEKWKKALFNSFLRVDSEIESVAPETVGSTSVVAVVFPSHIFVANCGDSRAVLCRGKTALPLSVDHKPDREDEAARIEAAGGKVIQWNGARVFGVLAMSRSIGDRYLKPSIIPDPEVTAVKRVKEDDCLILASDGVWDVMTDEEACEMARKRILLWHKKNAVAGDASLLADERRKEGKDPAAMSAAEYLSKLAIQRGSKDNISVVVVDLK"}
{"Change": "G102C", "relative binding score": "-3.9%"}
{"Change": "I57S", "relative binding score": "1.71%"}
{"Change": "S171F", "relative binding score": "-9.49%"}
{"Change": "M68W", "relative binding score": "-1.07%"}
{"Change": "D75I", "relative binding score": "24%"}
{"Change": "V62T", "relative binding score": "-1.03%"}
{"Change": "W41C", "relative binding score": "1.69%"}
{"Change": "R111A", "relative binding score": "5.66%"}
{"Change": "R90M", "relative binding score": "9.11%"}
{"Change": "F5A", "relative binding score": "8.04%"}
{"Change": "F15C", "relative binding score": "-1.97%"}
{"Change": "I12K", "relative binding score": "-0.426%"}
{"Change": "N22Q", "relative binding score": "39.3%"}
{"Change": "V145K", "relative binding score": "-12.5%"}
{"Change": "R90I", "relative binding score": "1.84%"}
{"Change": "A170P", "relative binding score": "-5.38%"}
{"Change": "R99P", "relative binding score": "-3.49%"}
{"Change": "G108L", "relative binding score": "-2.46%"}
{"Change": "F5G", "relative binding score": "0.709%"}
{"Change": "R88L", "relative binding score": "5.73%"}
{"Change": "N165D", "relative binding score": "14.1%"}
{"Change": "L94Y", "relative binding score": "4.74%"}
{"Change": "R24E", "relative binding score": "5.84%"}
{"Change": "H55T", "relative binding score": "5.84%"}
{"Change": "I79M", "relative binding score": "12.3%"}
{"data": "Set 2", "target": "CCNB1, cyclin fold, Cln2 fusion (human)", "method": "yeast growth competition, sequencing", "matrix": "yeast", "notes": "strong parent motif", "relative to": "not given", "direction": "higher = stronger binding", "starting sequence": "INSM1 docking peptide (human); PKAIRKLHFEDEV"}
{"Change": "D11I", "normalised enrichment score": 1.29}
{"Change": "K2A", "normalised enrichment score": 2.85}
{"Change": "D11F", "normalised enrichment score": 0.988}
{"Change": "I4S", "normalised enrichment score": 0.726}
{"Change": "E12T", "normalised enrichment score": 1.3}
{"Change": "A3G", "normalised enrichment score": 0.55}
{"Change": "R5N", "normalised enrichment score": 0.177}
{"Change": "H8F", "normalised enrichment score": 2.36}
{"Change": "K6R", "normalised enrichment score": 2.12}
{"Change": "L7M", "normalised enrichment score": 0.409}
{"Change": "K2M", "normalised enrichment score": 3.11}
{"Change": "K2P", "normalised enrichment score": 3.08}
{"Change": "E10N", "normalised enrichment score": 1.44}
{"Change": "D11Y", "normalised enrichment score": 0.829}
{"Change": "R5S", "normalised enrichment score": 0.712}
{"Change": "H8C", "normalised enrichment score": 3.18}
{"Change": "A3I", "normalised enrichment score": 4.48}
{"Change": "F9E", "normalised enrichment score": 0.0681}
{"Change": "F9N", "normalised enrichment score": 0.0387}
{"Change": "R5W", "normalised enrichment score": 0.193}
{"Change": "D11P", "normalised enrichment score": 1.11}
{"Change": "K6F", "normalised enrichment score": 0.605}
{"Change": "E12M", "normalised enrichment score": 1.51}
{"Change": "A3E", "normalised enrichment score": 1.3}
{"Change": "K6N", "normalised enrichment score": 0.7}
{"data": "Set 3", "target": "PABPC1L2, full length, GST fusion (mouse, UniProt A0ABA7IW68)", "method": "RNAcompete", "form": "RNA", "matrix": "in vitro", "tested at": "20 nM", "notes": "7-mer, probes averaged, single round", "relative to": "mean of 7-mers", "direction": "higher = stronger binding", "Construct (chain)": "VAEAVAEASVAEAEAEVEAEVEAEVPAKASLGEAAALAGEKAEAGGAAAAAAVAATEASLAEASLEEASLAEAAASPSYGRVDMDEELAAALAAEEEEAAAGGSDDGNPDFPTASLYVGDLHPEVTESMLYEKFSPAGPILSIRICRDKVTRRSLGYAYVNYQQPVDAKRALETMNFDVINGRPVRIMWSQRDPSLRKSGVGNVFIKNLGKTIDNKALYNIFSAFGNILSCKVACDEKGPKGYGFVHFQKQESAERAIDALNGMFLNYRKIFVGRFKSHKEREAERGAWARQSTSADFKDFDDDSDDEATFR"}
{"Sequence": "UCGCACU", "7-mer Z-score": -0.217}
{"Sequence": "UUUAUUU", "7-mer Z-score": -0.226}
{"Sequence": "AGGACGA", "7-mer Z-score": 0.209}
{"Sequence": "CUGGCAG", "7-mer Z-score": -0.126}
{"Sequence": "CCAGAGA", "7-mer Z-score": 0.124}
{"Sequence": "GAAGUAU", "7-mer Z-score": -0.148}
{"Sequence": "CAACCCC", "7-mer Z-score": -0.269}
{"Sequence": "GUGGGGU", "7-mer Z-score": 0.037}
{"Sequence": "AGUCUCU", "7-mer Z-score": -0.211}
{"Sequence": "CACCUGA", "7-mer Z-score": -0.219}
{"Sequence": "AACAUUG", "7-mer Z-score": 0.437}
{"Sequence": "UAUACUA", "7-mer Z-score": -0.197}
{"Sequence": "AGGUCGA", "7-mer Z-score": -0.0754}
{"Sequence": "CUAAGUA", "7-mer Z-score": -0.177}
{"Sequence": "ACCGACG", "7-mer Z-score": -0.128}
{"Sequence": "CGCCAGA", "7-mer Z-score": -0.258}
{"Sequence": "AUCAGAC", "7-mer Z-score": 0.138}
{"Sequence": "UCGGCUG", "7-mer Z-score": -0.213}
{"Sequence": "CGAUAGC", "7-mer Z-score": -0.213}
{"data": "Set 4", "target": "RNA binding protein fox-1 homolog 2, RRM domain, GST-SBP tag (RBFOX2, Homo sapiens, UniProt O43251-10, residues 100-194)", "method": "RNA Bind-n-Seq", "form": "RNA", "matrix": "in vitro", "tested at": "365 nM", "notes": "natural RNA segment, single round, ends assumed", "relative to": "no-protein control", "direction": "higher = stronger binding", "Target sequence (chain)": "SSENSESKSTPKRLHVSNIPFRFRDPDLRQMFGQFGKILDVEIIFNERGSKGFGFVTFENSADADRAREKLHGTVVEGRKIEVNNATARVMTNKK"}
{"Sequence": "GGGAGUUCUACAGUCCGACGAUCUUGACAAUGUCAGCUCCACUUUAGAAAUUUUCAAUAACCAGAUGAGAAAAAAAUUAAGAAAUUGCUCAAGGGAAACAUUUGUAAAUGGAUUUGAAAGAUUGAGCCAAAUUUGGAAUUCUCGGGUGCCAA", "RBNS enrichment (R)": 0.698}
{"Sequence": "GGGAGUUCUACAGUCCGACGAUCGACCAAUAAAUAUAAAAUAUGGUAAUUGGAAUUAACUCCACACCAUAGUAUGCAUUGUUAUACAUACUGUGUACCUAAUUAUGUAUAGCAGUGUAGUCUCAAUUAUAUCUUGGAAUUCUCGGGUGCCAA", "RBNS enrichment (R)": 0.288}
{"Sequence": "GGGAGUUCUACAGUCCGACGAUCGAUGGCUGCCAGUUUCUGCUGAUACACAGGUAGGAUGGGACCCUUCAUGAAUAUCUGACUUUAAUAAGUUGGUAAGGAUAUAUUUUUUUGUCUAUGUUCUGUUUCAACUUUGGAAUUCUCGGGUGCCAA", "RBNS enrichment (R)": 0.351}
{"Sequence": "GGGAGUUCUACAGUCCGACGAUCACCUUCCUACUAUCCUUGUCUUAUUCAUCAAGCAGAUAUUUUAGUCAAGAAUUCCAGAGAAGGCUGCUCCUAAAAUGUCUACUUGCAGCCCAAUACCAGAGCAUAAACUAUGGAAUUCUCGGGUGCCAA", "RBNS enrichment (R)": 0.313}
{"Sequence": "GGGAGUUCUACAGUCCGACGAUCGACAGCCCCCCAACAGUAGUAGGCCCUCUGCUGGCUGCAGCCUCCCCAGCCUGCACCCAGACAUGCCAGUGCACAGGGCUUGGUUGGAAGCUCUGAGAGACCAAAUAACAUGGAAUUCUCGGGUGCCAA", "RBNS enrichment (R)": 0.357}
{"Sequence": "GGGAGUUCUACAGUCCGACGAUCAAAUAUUGUGAGUGUAUGAAAUGUGAAAUUAAAGCAAAAACUGGAGACUUUUAAUGUAUUUCUUUAAUUUGAAAUGUUUUGUGGAUUGUGAAAUAAAAAUAAAUUUAUGUUGGAAUUCUCGGGUGCCAA", "RBNS enrichment (R)": 1.17}
{"Sequence": "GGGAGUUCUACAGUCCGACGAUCGCAUACAAGCAUUUGCAACAAGUAUUCAAAUAGAGGCUCACAGCGGCAUAAGCUGGACUUUGUCGCCACUAGAUGACAAGAUGGUAUACCUAAGCUAACCACACGUGUGUUGGAAUUCUCGGGUGCCAA", "RBNS enrichment (R)": 0.6}
{"Sequence": "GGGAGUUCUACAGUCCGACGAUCCAGACUCAGUUUUUCUUAUGUUAUACAAAAUAUUAGCCAUGCAUUUAUUAUGUAAAGGACUACCCAUGAUAACAUGCCAUAUUAUGUGUUUAUAUUCUAAUGUAACCAUAUGGAAUUCUCGGGUGCCAA", "RBNS enrichment (R)": 0.396}
{"note": "Some of these lines once more (set 3):"}
{"Sequence": "CAACCCC", "7-mer Z-score": -0.269}
{"Sequence": "CGAUAGC", "7-mer Z-score": -0.213}
{"Sequence": "AUCAGAC", "7-mer Z-score": 0.138}
{"Sequence": "AGGACGA", "7-mer Z-score": 0.209}
{"Sequence": "UAUACUA", "7-mer Z-score": -0.197}
